Published values of several laboratories.
Numbered parts are unrelated; each lists some results of a single study.
Sequence of UniProt P16234 (whole entry, looked up): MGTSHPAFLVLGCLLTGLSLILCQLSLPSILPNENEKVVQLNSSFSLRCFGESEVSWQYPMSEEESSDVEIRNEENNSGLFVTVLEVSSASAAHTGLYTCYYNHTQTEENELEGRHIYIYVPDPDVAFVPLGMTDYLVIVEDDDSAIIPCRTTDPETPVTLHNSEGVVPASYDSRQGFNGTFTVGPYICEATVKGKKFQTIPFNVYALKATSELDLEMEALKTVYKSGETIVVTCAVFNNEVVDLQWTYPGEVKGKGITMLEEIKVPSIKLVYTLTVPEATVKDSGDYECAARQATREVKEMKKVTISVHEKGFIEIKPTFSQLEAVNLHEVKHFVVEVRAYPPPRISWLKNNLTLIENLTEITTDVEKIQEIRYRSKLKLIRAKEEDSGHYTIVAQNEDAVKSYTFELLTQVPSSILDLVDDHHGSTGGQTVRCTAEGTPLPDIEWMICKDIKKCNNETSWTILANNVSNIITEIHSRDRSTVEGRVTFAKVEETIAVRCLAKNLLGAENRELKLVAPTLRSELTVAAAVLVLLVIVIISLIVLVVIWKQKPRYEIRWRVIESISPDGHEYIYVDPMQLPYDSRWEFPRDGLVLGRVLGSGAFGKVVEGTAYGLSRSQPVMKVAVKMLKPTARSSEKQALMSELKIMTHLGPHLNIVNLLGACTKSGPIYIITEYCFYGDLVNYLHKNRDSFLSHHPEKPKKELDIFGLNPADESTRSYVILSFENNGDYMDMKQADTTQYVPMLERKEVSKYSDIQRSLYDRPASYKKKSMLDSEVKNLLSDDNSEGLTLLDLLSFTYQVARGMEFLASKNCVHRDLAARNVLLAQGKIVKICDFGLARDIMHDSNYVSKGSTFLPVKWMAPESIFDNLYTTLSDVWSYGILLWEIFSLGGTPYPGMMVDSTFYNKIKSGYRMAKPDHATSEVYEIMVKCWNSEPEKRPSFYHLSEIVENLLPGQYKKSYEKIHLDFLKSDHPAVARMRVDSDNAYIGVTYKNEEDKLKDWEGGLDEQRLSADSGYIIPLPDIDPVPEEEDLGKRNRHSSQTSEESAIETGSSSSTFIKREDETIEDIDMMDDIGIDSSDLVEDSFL
Sequence of UniProt Q9UEE5 (whole entry, looked up): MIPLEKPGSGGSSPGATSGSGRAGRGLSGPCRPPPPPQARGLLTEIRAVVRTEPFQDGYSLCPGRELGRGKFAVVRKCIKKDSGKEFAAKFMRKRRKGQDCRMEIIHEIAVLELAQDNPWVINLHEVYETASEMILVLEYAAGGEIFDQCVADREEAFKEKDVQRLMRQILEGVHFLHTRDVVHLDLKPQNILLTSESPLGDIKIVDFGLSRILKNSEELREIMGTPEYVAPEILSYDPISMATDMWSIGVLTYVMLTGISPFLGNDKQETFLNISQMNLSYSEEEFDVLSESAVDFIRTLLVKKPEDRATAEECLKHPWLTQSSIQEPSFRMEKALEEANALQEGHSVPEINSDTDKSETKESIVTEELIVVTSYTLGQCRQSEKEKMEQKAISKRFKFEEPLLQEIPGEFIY
Sequence of UniProt Q9BRS2 (whole entry, looked up): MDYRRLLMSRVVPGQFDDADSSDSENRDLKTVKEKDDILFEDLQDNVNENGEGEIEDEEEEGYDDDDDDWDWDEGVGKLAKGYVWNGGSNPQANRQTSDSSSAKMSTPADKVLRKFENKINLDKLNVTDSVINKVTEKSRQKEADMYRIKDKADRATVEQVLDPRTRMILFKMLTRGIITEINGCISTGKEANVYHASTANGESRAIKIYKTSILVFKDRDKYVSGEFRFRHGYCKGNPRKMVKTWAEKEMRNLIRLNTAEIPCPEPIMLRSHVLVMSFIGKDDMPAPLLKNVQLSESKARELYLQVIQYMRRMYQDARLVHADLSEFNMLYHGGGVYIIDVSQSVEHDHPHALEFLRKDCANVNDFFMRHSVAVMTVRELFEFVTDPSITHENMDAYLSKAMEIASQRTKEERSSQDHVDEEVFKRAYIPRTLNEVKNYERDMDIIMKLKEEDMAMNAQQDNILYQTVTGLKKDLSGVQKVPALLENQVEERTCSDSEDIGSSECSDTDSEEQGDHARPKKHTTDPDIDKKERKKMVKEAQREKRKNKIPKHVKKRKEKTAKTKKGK
Sequence of UniProt Q8IYT8 (whole entry, looked up): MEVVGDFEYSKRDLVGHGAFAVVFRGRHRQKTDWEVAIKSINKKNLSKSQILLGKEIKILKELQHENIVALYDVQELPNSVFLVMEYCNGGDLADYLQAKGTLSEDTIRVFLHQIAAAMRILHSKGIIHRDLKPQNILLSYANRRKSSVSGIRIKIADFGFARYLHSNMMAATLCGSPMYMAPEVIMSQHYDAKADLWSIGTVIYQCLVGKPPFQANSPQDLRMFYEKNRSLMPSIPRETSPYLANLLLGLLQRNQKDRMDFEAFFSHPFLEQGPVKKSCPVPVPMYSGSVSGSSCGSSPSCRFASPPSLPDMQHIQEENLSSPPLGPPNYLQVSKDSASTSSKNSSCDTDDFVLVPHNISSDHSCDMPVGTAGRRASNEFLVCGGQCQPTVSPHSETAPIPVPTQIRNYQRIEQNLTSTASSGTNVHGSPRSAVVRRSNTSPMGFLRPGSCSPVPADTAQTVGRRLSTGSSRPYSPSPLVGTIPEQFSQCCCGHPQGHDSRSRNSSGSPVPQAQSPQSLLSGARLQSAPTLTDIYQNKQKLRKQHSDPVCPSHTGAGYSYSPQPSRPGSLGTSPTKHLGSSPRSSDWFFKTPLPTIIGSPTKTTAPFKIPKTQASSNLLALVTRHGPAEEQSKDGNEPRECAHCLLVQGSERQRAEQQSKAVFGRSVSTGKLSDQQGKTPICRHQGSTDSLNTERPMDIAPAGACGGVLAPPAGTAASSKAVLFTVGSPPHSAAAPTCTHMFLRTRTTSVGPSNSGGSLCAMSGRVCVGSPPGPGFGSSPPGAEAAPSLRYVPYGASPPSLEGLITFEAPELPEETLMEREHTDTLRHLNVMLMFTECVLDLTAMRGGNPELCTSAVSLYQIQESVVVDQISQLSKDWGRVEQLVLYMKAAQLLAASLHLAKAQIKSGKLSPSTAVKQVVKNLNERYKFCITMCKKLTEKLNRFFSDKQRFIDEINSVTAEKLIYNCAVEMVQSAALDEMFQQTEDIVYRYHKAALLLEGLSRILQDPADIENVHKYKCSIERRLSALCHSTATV
Sequence of UniProt P00519 (whole entry, unmodified, looked up): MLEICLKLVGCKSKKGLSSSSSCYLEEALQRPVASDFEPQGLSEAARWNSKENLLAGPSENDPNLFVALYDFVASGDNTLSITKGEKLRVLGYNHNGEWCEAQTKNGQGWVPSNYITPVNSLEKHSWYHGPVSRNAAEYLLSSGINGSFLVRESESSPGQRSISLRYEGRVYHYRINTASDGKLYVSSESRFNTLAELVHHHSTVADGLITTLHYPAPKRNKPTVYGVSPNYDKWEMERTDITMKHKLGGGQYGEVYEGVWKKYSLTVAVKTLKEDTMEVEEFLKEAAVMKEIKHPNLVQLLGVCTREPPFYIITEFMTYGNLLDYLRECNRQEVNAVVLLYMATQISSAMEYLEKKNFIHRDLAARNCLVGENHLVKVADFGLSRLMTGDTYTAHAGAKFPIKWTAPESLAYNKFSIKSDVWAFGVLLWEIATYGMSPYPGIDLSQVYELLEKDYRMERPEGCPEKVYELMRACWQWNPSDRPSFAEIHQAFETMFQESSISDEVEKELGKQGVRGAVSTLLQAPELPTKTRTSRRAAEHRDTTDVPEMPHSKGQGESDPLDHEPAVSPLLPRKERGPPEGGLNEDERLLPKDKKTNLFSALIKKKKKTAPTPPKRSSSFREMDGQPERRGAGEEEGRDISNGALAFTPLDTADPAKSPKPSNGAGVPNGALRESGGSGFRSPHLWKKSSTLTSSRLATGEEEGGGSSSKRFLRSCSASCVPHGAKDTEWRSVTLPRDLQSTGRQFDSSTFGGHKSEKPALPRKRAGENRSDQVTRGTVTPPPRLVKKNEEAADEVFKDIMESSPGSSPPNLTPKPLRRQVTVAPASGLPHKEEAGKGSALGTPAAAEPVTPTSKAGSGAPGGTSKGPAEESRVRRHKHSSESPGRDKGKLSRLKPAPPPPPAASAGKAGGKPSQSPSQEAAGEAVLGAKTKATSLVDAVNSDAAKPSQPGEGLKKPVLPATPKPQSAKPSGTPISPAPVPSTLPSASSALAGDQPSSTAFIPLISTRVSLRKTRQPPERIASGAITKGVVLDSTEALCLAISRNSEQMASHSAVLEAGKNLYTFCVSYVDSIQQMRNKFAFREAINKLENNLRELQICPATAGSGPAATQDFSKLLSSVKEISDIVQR

Block 1 — observed: enzyme activity; action: inhibitor; concentration: 0.5 µM; reference: control; measurement: remaining activity
Target: Serine/threonine-protein kinase PAK 2 (PAK2, Homo sapiens, UniProt Q13177)
Sequence of UniProt Q13177 (whole entry, looked up): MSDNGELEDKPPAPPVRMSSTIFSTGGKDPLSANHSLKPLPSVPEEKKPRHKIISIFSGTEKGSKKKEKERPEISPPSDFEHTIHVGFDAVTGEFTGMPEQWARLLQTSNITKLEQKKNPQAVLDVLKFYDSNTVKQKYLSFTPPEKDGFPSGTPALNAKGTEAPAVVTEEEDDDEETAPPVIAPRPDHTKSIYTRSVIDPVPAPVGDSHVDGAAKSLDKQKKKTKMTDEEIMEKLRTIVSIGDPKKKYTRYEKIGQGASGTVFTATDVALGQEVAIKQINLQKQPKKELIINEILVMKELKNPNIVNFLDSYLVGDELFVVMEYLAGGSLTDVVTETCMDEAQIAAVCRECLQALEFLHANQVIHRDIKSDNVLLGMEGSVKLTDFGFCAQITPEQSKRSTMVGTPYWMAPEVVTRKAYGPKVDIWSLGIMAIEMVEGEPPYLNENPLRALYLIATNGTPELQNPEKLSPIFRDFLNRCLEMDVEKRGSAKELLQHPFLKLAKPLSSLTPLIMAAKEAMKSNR
N#CC(c1ccnc(NCCc2cccnc2)n1)c1nc2ccccc2s1 (stereo not drawn): 103%
CCN(CC)CCCCN1c2ccccc2Oc2ccc(Cl)cc21: 98.6%
CC(C)(C)c1nc2c3cc[nH]c(=O)c3c3cc(F)ccc3c2[nH]1: 88.8%
CCCCc1c(-c2ccc(O)cc2)[nH]c2nccnc12: 84.5%
C[C@@H](N)[C@H]1CC[C@H](C(=O)Nc2ccncc2)CC1: 96.6%
O=C1c2ccccc2-c2nc3nnnn3nc21: 96.2%
O=c1c(-c2ccc(F)cc2)c(-c2ccncc2)[nH]n1-c1ccc(Cl)cc1: 102%
COc1cc2c(Nc3ccc(Br)cc3F)ncnc2cc1OCC1CCN(C)CC1: 103%
COc1cc2c(N3CCN(C(=O)Nc4ccc(OC(C)C)cc4)CC3)ncnc2cc1OCCCN1CCCCC1: 112%
O=C(O)/C=C/c1cc(Br)c(Br)c(Br)c1Br: 83.2%
O=C1NC(=O)/C(=C/c2ccc3c(c2)OC(F)(F)O3)S1: 99.9%
FC(F)(F)c1ccc(/C=C/c2nc(COc3ccc(CCCCn4ccnn4)cc3)co2)cc1: 113%
NC(=O)c1ccc(-c2nc(-c3ccc4c(c3)OCCO4)c(-c3ccccn3)[nH]2)cc1: 102%
O=Nc1c(-c2c(O)[nH]c3ccccc23)[nH]c2ccccc12: 96.7%
CNc1cc2c(Nc3cccc(Br)c3)ncnc2cn1: 92.7%

Block 2 — cell line: Huh-7; concentration: 10 µM; time: 24 h; measurement: viability
O=C(CNC(=O)c1ccc(Cl)cc1)NO: 97.9%
CC(=O)N1CCN(c2ccc(OC[C@@H]3CO[C@@](Cn4ccnc4)(c4ccc(Cl)cc4Cl)O3)cc2)CC1 (racemic): 72.6%
OCCN(CCO)c1nc(N2CCCCC2)c2nc(N(CCO)CCO)nc(N3CCCCC3)c2n1: 95.8%
COc1ccccc1OCC(O)CN1CCN(CC(=O)Nc2c(C)cccc2C)CC1 (stereo not drawn): 96.4%
CC1(C)S[C@@H]2[C@H](NC(=O)[C@H](N)c3ccccc3)C(=O)N2[C@H]1C(=O)O: 97.1%
CCCCCCCCCCOc1cc2c(O)c(C(=O)OCC)cnc2cc1OCC: 93.8%
CCc1ccc(CCOc2ccc(CC3SC(=O)NC3=O)cc2)nc1 (stereo not drawn): 94.6%

Block 3 — cell line: HaCaT; concentration: 100 µM; time: 36 h; measurement: viability
CCn1cc(C(=O)O)c(=O)c2cc(F)c(N3CCNCC3)cc21: 75.7%
Cc1nc(Nc2ccc(F)cc2)nc(N2CCc3ccccc3C2C)c1C (stereo not drawn): 6.63%
CC(C)(O/N=C(\C(=O)N[C@@H]1C(=O)N2C(C(=O)[O-])=C(C[n+]3ccccc3)CS[C@H]12)c1csc(N)n1)C(=O)O: 99.3%
COc1cc(CNC(=O)CCCC/C=C/C(C)C)ccc1O: 42.9%
CCCc1nc2c(C)cc(-c3nc4ccccc4n3C)cc2n1Cc1ccc(-c2ccccc2C(=O)O)cc1: 40.7%

Block 4 — observed: cell-free assay; method: competition with immobilised ligand; concentration: 1 µM; measurement: remaining binding
SMILES: O=C(Nc1cccnn1)N1CC(C/C=C/c2cncc(Oc3ccc(C(F)(F)F)cn3)n2)C1
RIOK1 (Homo sapiens, UniProt Q9BRS2): 100%
PDGFRA (Homo sapiens, UniProt P16234): 80%
SLK (Homo sapiens, UniProt Q9H2G2): 100%
ZAP70 (Homo sapiens, UniProt P43403): 90%
MARK1 (Homo sapiens, UniProt Q9P0L2): 100%
CDKL3 (Homo sapiens, UniProt Q8IVW4): 95%
PIK3CA (Homo sapiens, UniProt P42336, M1043I): 100%
STK17A (Homo sapiens, UniProt Q9UEE5): 100%
Tyrosine-protein kinase ABL1, phosphorylated (ABL1, Homo sapiens, UniProt P00519, E255K): 81%
ULK2 (Homo sapiens, UniProt Q8IYT8): 73%
CAMK2G (Homo sapiens, UniProt Q13555): 100%
MAPK1 (Homo sapiens, UniProt P28482): 100%

For quick reference, copied from above (block 4):
RIOK1 (Homo sapiens, UniProt Q9BRS2): 100%
PDGFRA (Homo sapiens, UniProt P16234): 80%
SLK (Homo sapiens, UniProt Q9H2G2): 100%
ZAP70 (Homo sapiens, UniProt P43403): 90%
MARK1 (Homo sapiens, UniProt Q9P0L2): 100%
